Results of several laboratories.
Each numbered part is a random draw from the data of one study; scales do not carry over between parts.

Block 1
Target: Protein C-ets-1 (ETS1, Homo sapiens, UniProt P14921, residues 1-441, full length assumed)
Technique: protein-binding microarray
Form: double-stranded DNA, one strand shown
Matrix: in vitro
Concentration: not given
Setting: k-mer, scored over probes, only values ≥0.25
Direction: higher = stronger binding
Target sequence (chain): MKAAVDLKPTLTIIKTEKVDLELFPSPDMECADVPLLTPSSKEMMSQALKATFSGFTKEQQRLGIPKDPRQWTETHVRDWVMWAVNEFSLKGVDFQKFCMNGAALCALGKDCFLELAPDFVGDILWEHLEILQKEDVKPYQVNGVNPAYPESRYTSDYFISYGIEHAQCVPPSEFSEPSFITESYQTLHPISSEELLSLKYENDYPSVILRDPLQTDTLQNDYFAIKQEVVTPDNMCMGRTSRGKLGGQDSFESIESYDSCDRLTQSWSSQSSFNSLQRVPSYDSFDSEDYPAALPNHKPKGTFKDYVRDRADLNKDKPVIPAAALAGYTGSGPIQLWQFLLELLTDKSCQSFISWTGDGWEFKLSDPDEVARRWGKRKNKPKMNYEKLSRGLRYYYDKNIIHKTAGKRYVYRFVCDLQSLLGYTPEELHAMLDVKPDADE
Sequence	E-score
GCATCCAC	0.274
CCGCGCGG	0.265
GGACGCCC	0.276
AGACGGAA	0.367
CCCCGCCA	0.253
CTCCGGTA	0.334
CGGGAAGA	0.297
ACCCGGAA	0.461
TCCCGGAA	0.46
ACTATCCG	0.302
GGGGGAAA	0.358
CATCCGAA	0.299
ATCACATC	0.314
ATACAGGA	0.385
AACCTTCC	0.324
CGGAAGTA	0.489
ATGCAGGA	0.255
CCGGAGCA	0.272
ACCCCCGG	0.258
CTTCCTCA	0.389
ACACCGGT	0.285
CGGATAAG	0.342
AAATTCCG	0.264
AGCCGGAT	0.47
GGACGGAA	0.438

Block 2
Target: RNA binding protein fox-1 homolog 2, RRM domain, GST-SBP tag (RBFOX2, Homo sapiens, UniProt O43251-10, residues 100-194)
Technique: RNA Bind-n-Seq
Form: RNA
Matrix: in vitro
Concentration: 365 nM
Setting: natural RNA segment, single round, ends assumed
Relative to: no-protein control
Direction: higher = stronger binding
Target sequence (chain): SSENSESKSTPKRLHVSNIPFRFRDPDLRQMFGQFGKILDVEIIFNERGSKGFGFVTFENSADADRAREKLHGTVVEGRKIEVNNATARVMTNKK
Sequence	RBNS enrichment (R)
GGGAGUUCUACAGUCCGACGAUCCCACAGCACCCUCAAGCAUACGGCGCUGUUCCUGCCACUGUCCUGAAGAUGUGAAUGGGUGGUACGAUUUCAACACUGGUUAAUUUCACACUCCAUCUCCCCGCUUUGUAUGGAAUUCUCGGGUGCCAA	0.624
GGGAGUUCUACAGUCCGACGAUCCUGAGCAACUGGGCACGUGCUAGUACGCACCCCCUCCUACUCUAACUGUGCUAGCUCUUGGGUUGAGGAAUGGAAUGGGUAGCCUUCUGCUUACUGGAGAUGCACAGAGAUGGAAUUCUCGGGUGCCAA	3.13
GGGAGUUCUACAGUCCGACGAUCAUCUUUGUUUCCCUCACACUUAGAGCCACUAAGUCUGCAGUUCUUUUUGAAUGUGAAACACAUCUGUGCUCCUCUUGUCUAUUUUUUCUCUUCAUGUUUUAACAAAAAAGUGGAAUUCUCGGGUGCCAA	0.563
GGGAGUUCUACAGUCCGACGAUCUUGGAAGCCUUUGAUAGUUACUGCCUACCUUCAAUGGUGAUGAUAACAUUGUGACUCUUACUCGUUUUUGUUGGUUAGCAGAGGUUCCUUUAUAGAGAAAGCCUUCCCUCUGGAAUUCUCGGGUGCCAA	0.406
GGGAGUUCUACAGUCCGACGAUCCUCUGGGUAGUGAGGGAUGACCAGUCUUGUCCUGAGAAAUGUUUCUCUUAGUCUUUAAGUUCAAAGACUAACCUGUAGCAAUCAGACUUUCCAAAAGGGGGUUCUCCAUUUGGAAUUCUCGGGUGCCAA	0.233
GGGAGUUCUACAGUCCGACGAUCAAAACUAUAAUAGUUAACAACUGUUAGUAAGAUAGACCAAUUCUGAUUAGACUUUAUCAGGGAAUCUGUUUAAGAUAUGUUUGGUGACCAAAACGUAUGUGUGAAUGUAGUGGAAUUCUCGGGUGCCAA	1.28
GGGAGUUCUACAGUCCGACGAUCCAGCCAGUGUCGGGAAGAGUUGCCCGCCAGCCUUCCAGAGUUCCCCUACCCGAUUGGUCCCGGCCUCCUGGGAGUGUGGCCAAGCCCUCCCUAACCCAGAAUUGGCCCGAUGGAAUUCUCGGGUGCCAA	0.541
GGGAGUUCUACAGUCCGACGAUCUCAACCCCACCCUGUUUGGAUUUUUAAUUAAAAUCUAGUAGUUCUCUUGGUAUUAAAACACUUCUGUCCUGUGAGGUUUUCCCAAUGGUGUUUUUCUUGUAAAUGUGUUGUGGAAUUCUCGGGUGCCAA	0.984
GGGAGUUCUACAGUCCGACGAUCUUAAUAUUGCUGUGAACAGUGGUGCCCAUUGUAGCAUAUGUUUGAUUUUUUUUUAUUAUUUCAUAAGAAAACUACGUUAAUUUUACCUUACUUUCAUUGUAAAUAAGCCUUGGAAUUCUCGGGUGCCAA	0.822
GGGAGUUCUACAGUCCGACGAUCCUGAGAUUUCCAGCUUUAUAACCAAAGCUUGAUAUAUGUCACAUUGUCACAGAAGAGAGAAAAGAUCAUUGAGGACAGUUGCCUUGGGAGAGUUCAAGUCUUUGUCGUUAUGGAAUUCUCGGGUGCCAA	0.659
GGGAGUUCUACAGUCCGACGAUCCCUCUAGGAGGCAGCCCCUAGGAGCACGCACGUUCUGUCAGUAUUACCCCACCUGUCCUAUCAGGUGGGCCACACCCUGCUUGCCCACACCAGGGUCUGUCCUGGUCCUCUGGAAUUCUCGGGUGCCAA	0.27
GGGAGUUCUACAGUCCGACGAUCAAAGGAAAAAAAAAGCAGGUUUGAACGAUCACUUUGUGGCCUCCUGGCCACUUUUAGACAUUAUCAUUUUGCCUCAGGUUGGAGGACUUUGUGGAAUUUAAGAAAUACAUUGGAAUUCUCGGGUGCCAA	0.483

Block 3
Target: Histone acetyltransferase KAT6A, both winged helices, GST fusion (KAT6A, Homo sapiens, UniProt Q92794, residues 1-181)
Technique: protein binding microarray
Form: double-stranded DNA, one strand shown
Matrix: in vitro
Concentration: not given
Setting: 8-mer, flanks averaged, mean of 2 arrays, mostly near background
Relative to: not given
Direction: higher = stronger binding
Residues (chain): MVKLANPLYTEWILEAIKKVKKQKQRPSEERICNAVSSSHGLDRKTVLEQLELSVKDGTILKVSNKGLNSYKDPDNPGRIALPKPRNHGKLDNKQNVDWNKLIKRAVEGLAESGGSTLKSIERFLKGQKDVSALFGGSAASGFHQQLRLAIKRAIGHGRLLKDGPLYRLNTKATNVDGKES
Sequence	E-score
AGAATTGA	-0.132
ACCGCAGC	0.132
ACGCCGGA	0.0853
CTCCAGCA	-0.211
ACAGACTG	-0.0411
CACAATCA	-0.117
ACCCTACT	-0.171
AGGGTTGA	-0.192
ACACGTCT	-0.0335
ATGTCCCC	-0.0282
ATTCGGCG	0.245
AAGGGTTG	-0.145
CTCTGAAC	-0.102
GTGCCCCA	-0.143
CATACCAA	-0.0638
CCTTAGCC	0.05
CGTGCACA	-0.0947
ACGTTGCT	-0.0319
GCCCCTGA	-0.208
ACATCGAC	-0.0204

Block 4
Target: Sal-like protein 4, full length isoform A (SALL4, Homo sapiens, UniProt Q9UJQ4, residues 1-1053)
UniProt Q9UJQ4, sequence (whole entry, looked up): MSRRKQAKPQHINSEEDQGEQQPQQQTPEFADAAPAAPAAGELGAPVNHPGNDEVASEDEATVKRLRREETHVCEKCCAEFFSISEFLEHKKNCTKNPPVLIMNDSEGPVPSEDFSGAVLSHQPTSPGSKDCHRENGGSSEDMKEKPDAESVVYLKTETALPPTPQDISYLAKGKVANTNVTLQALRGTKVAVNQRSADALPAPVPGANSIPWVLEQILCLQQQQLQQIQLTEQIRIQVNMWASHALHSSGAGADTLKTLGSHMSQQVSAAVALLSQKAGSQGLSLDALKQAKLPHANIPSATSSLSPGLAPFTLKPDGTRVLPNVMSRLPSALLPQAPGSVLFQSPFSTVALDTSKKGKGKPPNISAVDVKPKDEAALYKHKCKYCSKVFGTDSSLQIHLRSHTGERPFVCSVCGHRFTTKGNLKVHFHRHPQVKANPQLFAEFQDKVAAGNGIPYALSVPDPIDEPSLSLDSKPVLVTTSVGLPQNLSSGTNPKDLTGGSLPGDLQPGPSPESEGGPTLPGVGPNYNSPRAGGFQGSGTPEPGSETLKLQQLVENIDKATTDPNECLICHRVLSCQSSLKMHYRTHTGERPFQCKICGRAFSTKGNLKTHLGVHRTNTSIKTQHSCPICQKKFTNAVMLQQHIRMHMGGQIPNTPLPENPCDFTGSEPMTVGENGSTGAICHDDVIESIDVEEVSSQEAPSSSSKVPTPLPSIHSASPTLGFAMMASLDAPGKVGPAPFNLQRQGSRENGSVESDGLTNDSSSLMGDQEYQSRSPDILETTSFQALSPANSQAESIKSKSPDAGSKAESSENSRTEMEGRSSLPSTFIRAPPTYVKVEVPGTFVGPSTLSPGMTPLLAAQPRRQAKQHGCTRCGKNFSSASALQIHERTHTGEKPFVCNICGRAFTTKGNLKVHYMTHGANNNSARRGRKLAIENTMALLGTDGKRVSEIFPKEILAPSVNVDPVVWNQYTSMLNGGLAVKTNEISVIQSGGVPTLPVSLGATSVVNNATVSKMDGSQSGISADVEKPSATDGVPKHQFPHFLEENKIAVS
Technique: universal PBM
Form: double-stranded DNA, one strand shown
Matrix: in vitro
Concentration: 600 nM
Setting: 8-mer, flanks averaged, mean of replicates
Direction: higher = stronger binding
Sequence	E-score
ATGGGCTA	0.0905
CCCCATGC	-0.241
AGCACAGG	-0.226
CCACCGAC	-0.327
AAAGTAAC	0.17
GACGAGAC	-0.14
GACGAGCA	0.0123
GTGATCTA	0.164
GGGCCCCA	-0.397
AGAAGAGC	-0.0335
GCATGCCA	-0.266
TCATGCAA	0.168
CGCCTGAG	-0.336
CAGGCCGC	-0.29
CGCCCTCA	-0.206
AGCATACC	0.0597
ACATGCTA	0.0471
AATGGTGG	-0.0638
AACTCTTA	0.164
AACGACTT	0.0211
CCGGCCAG	-0.373
ACCATAAG	0.2
ACGTGTCG	-0.0846
GGGTTAGA	-0.196

Block 5
Target: Ras GTPase-activating protein-binding protein 1, C-terminal RGG region (G3BP1, Homo sapiens, UniProt Q13283)
UniProt Q13283, sequence (whole entry, looked up): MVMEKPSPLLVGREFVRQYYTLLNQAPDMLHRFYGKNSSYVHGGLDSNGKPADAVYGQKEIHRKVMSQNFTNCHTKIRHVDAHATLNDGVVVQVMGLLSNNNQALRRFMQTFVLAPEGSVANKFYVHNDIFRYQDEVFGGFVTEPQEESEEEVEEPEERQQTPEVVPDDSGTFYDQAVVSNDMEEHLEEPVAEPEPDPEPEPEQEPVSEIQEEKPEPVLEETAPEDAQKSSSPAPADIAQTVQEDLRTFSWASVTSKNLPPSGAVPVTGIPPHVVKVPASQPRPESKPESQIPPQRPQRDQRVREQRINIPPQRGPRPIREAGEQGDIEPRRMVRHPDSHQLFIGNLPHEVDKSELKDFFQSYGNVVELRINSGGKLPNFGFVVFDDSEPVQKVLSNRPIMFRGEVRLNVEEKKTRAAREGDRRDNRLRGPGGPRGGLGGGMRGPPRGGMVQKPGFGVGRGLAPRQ
Technique: RNA Bind-n-Seq
Form: RNA
Matrix: in vitro
Concentration: 1 µM
Setting: whole 134-nt RNA, ends assumed
With: 150 mM KCl
Relative to: input library
Direction: higher = stronger binding
Sequence	log2 enrichment
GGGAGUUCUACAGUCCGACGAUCGUCCUGUGCUACACAUCGUAUGUACCGAAUCGGGGUUUUUUUGGGGUGGGGAAAGGGGAAAGUAUUAUGUUACGCCGUUCGGAUCUGCACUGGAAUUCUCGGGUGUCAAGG	2.49
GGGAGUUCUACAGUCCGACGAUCAGUCCUGUGCUACACAUCGUAUGUACCGAAUCGGGGAAAAGGAAAAGGGAAAAGGGGAAAGUAUUAUGUUACGCCGUUCGGAUCUGCACUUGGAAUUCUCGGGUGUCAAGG	-1.02
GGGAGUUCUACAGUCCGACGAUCGUCCUGUGCUACACAUCGUAUGUACCGAAUCGGAAAAAAAGGUUUUUUUGGAAAAAGGAAAGUAUUAUGUUACGCCGUUCGGAUCUGCACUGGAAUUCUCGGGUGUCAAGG	-2.12
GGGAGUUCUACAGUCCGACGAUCUCAAGUCCUGUGCUACACAUCGUAUGUACCGAAUCGGGUGGGAAAGGGUUUGGGAAAGUAUUAUGUUACGCCGUUCGGAUCUGCACUUCCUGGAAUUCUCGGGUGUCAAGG	1.78
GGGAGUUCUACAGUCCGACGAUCGUCCUGUGCUACACAUCGUAUGUACCGAAUCGGGGUUUUUUUGGGGUUUGGGGAGGGGAAAGUAUUAUGUUACGCCGUUCGGAUCUGCACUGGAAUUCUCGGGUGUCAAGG	2.27
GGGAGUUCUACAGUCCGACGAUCCUGUGCUACACAUCGUAUGUACCGAAUCGGGGUUUUUUUGGUUUUUUUGGGGUUUUUUUGGGAAAGUAUUAUGUUACGCCGUUCGGAUCUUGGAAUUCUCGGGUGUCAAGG	-1.29
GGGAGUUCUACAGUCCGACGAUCUCCUGUGCUACACAUCGUAUGUACCGAAUCGGAAAAAAGGGGAAAAAAGGAAAAAAGGGGAAAGUAUUAUGUUACGCCGUUCGGAUCUGCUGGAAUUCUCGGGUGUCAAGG	-1.41
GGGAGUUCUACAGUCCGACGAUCACCAUGCAGGUGGGCAUCUUUGGGAAGUGGGGCAAGGGGGGGAUAGGGAGGGGGGUAACACUUUGGGAACAGGUGGUCCCAUGUCGUUUCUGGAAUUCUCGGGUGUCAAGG	1.5
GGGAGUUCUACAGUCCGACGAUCAAGUCCUGUGCUACACAUCGUAUGUACCGAAUCGGGGUGGGGUUUGGGGAAAGGGGAAAGUAUUAUGUUACGCCGUUCGGAUCUGCACUUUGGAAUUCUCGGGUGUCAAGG	3.18
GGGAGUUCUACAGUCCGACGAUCUGGGAGGUGGAUUUUGUUUAUUUUUUUAGCUCAUUUCCAGGGGUGGGAAUUUUUUUUUAAUAUGUGUCAUGAAUAAAGUUGUUUUUGAACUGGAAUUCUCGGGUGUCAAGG	3.88
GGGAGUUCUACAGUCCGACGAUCAGUCCUGUGCUACACAUCGUAUGUACCGAAUCGGGCCCCCGGCCCCCGGCCCCCGGGAAAGUAUUAUGUUACGCCGUUCGGAUCUGCACUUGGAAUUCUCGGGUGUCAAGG	-1.96
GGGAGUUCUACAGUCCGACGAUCCAAGUCCUGUGCUACACAUCGUAUGUACCGAAUCGGGCCCGGGCCCGGGCCCGGGAAAGUAUUAUGUUACGCCGUUCGGAUCUGCACUUCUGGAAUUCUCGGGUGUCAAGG	-0.707
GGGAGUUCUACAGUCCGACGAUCCCUGUGCUACACAUCGUAUGUACCGAAUCGGGUUUUUUUGGGUUUUUUUGGUUUUUUUGGGAAAGUAUUAUGUUACGCCGUUCGGAUCUGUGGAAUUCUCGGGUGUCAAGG	-1.45
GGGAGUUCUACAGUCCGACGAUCUCCUGUGCUACACAUCGUAUGUACCGAAUCGGGGAAAAAGGGAAAAAGGGGAAAAAGGGAAAGUAUUAUGUUACGCCGUUCGGAUCUGCAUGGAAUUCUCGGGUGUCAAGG	-0.624
